Experimental data from different studies.
Every numbered part comes from another study and shows a few of its results, in no order.

Sample 1 — technique: competition protein-binding microarray; molecule type: double-stranded DNA, one strand shown; medium: in vitro; tested at: 2 µM; with: Cbf1 competitor, 0.05 µM; reading: higher = stronger binding; shared flanks, not repeated: … GTCTTGATTCGCTTGACGCTGCTG
Target: Phosphate system positive regulatory protein PHO4, full length, GST-tagged (PHO4, Saccharomyces cerevisiae, UniProt P07270, residues 1-312)
Setting: whole 60-bp probe, lowest competitor level
Target sequence (chain): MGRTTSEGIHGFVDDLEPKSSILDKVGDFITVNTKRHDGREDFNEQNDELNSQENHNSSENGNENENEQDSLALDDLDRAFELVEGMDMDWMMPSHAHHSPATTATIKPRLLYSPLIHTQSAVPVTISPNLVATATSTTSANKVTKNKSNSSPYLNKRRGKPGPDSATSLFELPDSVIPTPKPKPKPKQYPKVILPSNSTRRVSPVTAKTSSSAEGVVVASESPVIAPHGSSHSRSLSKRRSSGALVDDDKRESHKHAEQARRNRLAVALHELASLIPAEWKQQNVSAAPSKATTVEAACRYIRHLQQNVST
| Sequence | fluorescence intensity [a.u.] |
| --- | --- |
| CGCCATCTTGGGCCCCGCGTGTTCCCGCCTTAGCGG | 9700 |
| CTTTCCCGATCTTGGAACGTGGGTGTAGCACATTTG | 15000 |
| CTAACGAAGGTTTTTCACGTGTCTTACAAGCCAAGT | 13400 |
| TTGTTGAATTTGGGACCCTTGTTGATACCTCTGGAT | 2890 |
| ATTTGAACACCCCGTCACCTGAGTTAGGTAATTCAT | 3790 |

Sample 2 — technique: protein-binding microarray; molecule type: double-stranded DNA, one strand shown; medium: in vitro; tested at: 250 nM; setting: 60-bp whole probe; with: salmon DNA 0.4 mg/ml; relative to: random background probes; reading: higher = stronger binding; shared flanks, not repeated: GCCTAGCAC … GTCTTGATTCGCTTGACGCTGCTG
Target: Interferon regulatory factor 5, full length, phosphomimetic (IRF5, Homo sapiens, UniProt Q13568-2, residues 1-514, K96S/S451D/S453D/S456D/S462D)
| Sequence | log fluorescence [z-score] |
| --- | --- |
| TTAGGACTGGGACTGGTTTAGTGCTAG | -0.451 |
| ATAGAACTGAGTCTCGATTAGTGCTAG | 0.673 |
| TTAGGTATCGGGACCGGGTTAGTGCTA | 1.9 |
| TTTTCTCTTATTCTAACAGCGTGCTAG | 1.99 |
| TCATCTCTGGCCCTCCTACTGTGCTAG | -0.284 |

Sample 3 — technique: universal PBM; molecule type: double-stranded DNA, one strand shown; medium: in vitro; tested at: not given; reading: higher = stronger binding
Target: Sal-like protein 4, full length isoform B (SALL4, Homo sapiens, UniProt Q9UJQ4-2, residues 1-616)
Setting: 8-mer, flanks averaged, mean of replicates
Construct (chain): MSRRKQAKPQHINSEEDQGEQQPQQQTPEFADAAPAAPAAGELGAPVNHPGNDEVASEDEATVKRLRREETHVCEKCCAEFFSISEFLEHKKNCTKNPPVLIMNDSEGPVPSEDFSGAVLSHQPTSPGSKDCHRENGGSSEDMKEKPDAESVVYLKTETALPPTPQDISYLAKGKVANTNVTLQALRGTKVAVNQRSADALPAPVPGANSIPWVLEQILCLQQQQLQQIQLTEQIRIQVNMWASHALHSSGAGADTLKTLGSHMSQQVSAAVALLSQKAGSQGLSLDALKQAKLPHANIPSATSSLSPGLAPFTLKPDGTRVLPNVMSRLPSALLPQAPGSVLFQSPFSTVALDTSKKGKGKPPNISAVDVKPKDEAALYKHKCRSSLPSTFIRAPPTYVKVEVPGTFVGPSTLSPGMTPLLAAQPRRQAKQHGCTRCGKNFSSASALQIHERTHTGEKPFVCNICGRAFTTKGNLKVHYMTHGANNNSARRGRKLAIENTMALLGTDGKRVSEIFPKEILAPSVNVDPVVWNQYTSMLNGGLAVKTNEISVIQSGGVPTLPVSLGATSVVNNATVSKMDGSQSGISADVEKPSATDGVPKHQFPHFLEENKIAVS
| Sequence | E-score |
| --- | --- |
| ATCTTCCC | -0.0342 |
| CCGCCAGC | -0.263 |
| CCGGTAAA | -0.0076 |
| GAAATAGC | 0.0243 |

Single results of other studies
| Molecule | target | assay | test system | conditions | how to read | quantity | result |
| --- | --- | --- | --- | --- | --- | --- | --- |
| PhoQ, residues 284 288 289 292 302 303 QWGLFV | PhoP, residues 12 14 15 18 19 TTLRV (Escherichia coli, UniProt P23836) | Sort-seq, refers to: YFP reporter | E. coli | PhoQ-PhoP variant library, with: 10 µM Mg2+ | relative to: high Mg2+ state, higher = stronger signaling | fold induction | 5.16 |

Excerpt of the above (single results of other studies):
| Molecule | target | assay | test system | conditions | how to read | quantity | result |
| --- | --- | --- | --- | --- | --- | --- | --- |
| PhoQ, residues 284 288 289 292 302 303 QWGLFV | PhoP, residues 12 14 15 18 19 TTLRV (Escherichia coli, UniProt P23836) | Sort-seq, refers to: YFP reporter | E. coli | PhoQ-PhoP variant library, with: 10 µM Mg2+ | relative to: high Mg2+ state, higher = stronger signaling | fold induction | 5.16 |
